# Measured values gathered from unrelated publications.
# Cell line: PC-3
SMILES,read-out,method,time,IC50
CC(=O)O[C@@H]1CC[C@@]2(C)[C@@H](CC[C@]3(C)[C@@H]2C(=O)C=C2[C@@H]4[C@@H](C)[C@H](C)CC[C@]4(C)CC[C@]23C)[C@@]1(C)C(=O)NCCNC(=O)CCCCCCC[P+](c1ccccc1)(c1ccccc1)c1ccccc1,cell growth or viability,MTT,48 h,17.9 µM
Cc1ccc(NC(=O)N/N=C2\CC3(CCN(C)CC3)Oc3ccccc32)cc1,cell growth or viability,MTT,48 h,9.71 µM
CCN(CC)CCN1C(=O)c2ccc3c4cccc5cccc(c6ccc(c2c36)C1=O)c54,cell growth or viability,SRB,72 h,5.1 µM
CCOC(=O)C[C@H]1Oc2ccccc2C(=O)[C@]1(C)[N+](=O)[O-],cell growth or viability,SRB,96 h,> 50 µM
CCCCCCCC(=O)NCCNC(=O)[C@]1(C)[C@@H]2CC[C@]3(C)[C@H](C(=O)C=C4[C@@H]5[C@@H](C)[C@H](C)CC[C@]5(C)CC[C@]43C)[C@@]2(C)CC[C@H]1OC(C)=O,cell growth or viability,MTT,48 h,12.3 µM
CN1CCC2(CC1)C/C(=N\NC(=O)Nc1ccc(Cl)cc1)c1ccccc1O2,cell growth or viability,MTT,48 h,2.56 µM
O=C1c2ccc3c4cccc5c(N6CCNCC6)ccc(c6ccc(c2c36)C(=O)N1CCN1CCCCC1)c54,cell growth or viability,SRB,72 h,42.9 µM
C[C@]12CC/C(=N\OCCN3CCOCC3)C=C1CCC1C2CC[C@]2(C)/C(=C/c3ccccn3)CCC12 (some centres unmarked),cell growth or viability,MTT,72 h,> 100 µM
CCc1c(C)c2ccc(OC(C)C)c(C)c2oc1=O,cell growth or viability,MTT,,> 50 µM
N=C(N)Nc1nc2ccccc2[nH]1,cell growth or viability,MTT,24 h,121 µM
C=CCc1ccc(OC(C)=O)c(OC)c1,,MTT,24 h,> 50 µM
CC(=O)O[C@@H]1CC[C@@]2(C)[C@@H](CC[C@]3(C)[C@@H]2C(=O)C=C2[C@@H]4[C@@H](C)[C@H](C)CC[C@]4(C)CC[C@]23C)[C@@]1(C)C(=O)NCCNC(=O)CCCCCBr,cell growth or viability,MTT,48 h,9.33 µM
O=C(Cc1ccccc1)NC(=S)Nc1nccs1,cell growth or viability,MTT,48 h,44.5 µM
C=C[C@H](OC(C)=O)c1ccc(OC(C)=O)cc1,cell growth or viability,MTT,24 h,26.7 µM
N.N.O=C(CCCc1ccccc1)[O][Pt]([Cl])([Cl])[O]C(=O)CCCc1ccccc1,cell growth or viability,,,0.41 µM
CC1=CC[C@]2(C(=O)O[C@H]3OC[C@@H](O)[C@@H](O)[C@@H]3OS(=O)(=O)O)CC[C@]3(C)C(CCC4[C@@]5(C)CC[C@H](O)C(C)(C)C5CC[C@]43C)C2[C@H]1C (some centres unmarked),cell growth or viability,MTT,,5.52 µM
C[C@H]1[C@H](C)CC[C@]2(C)CC[C@]3(C)C(=CC(=O)[C@@H]4[C@@]5(C)CC[C@@H](O)[C@](C)(C(=O)NCCNC(=O)C6CCCCC6)[C@@H]5CC[C@]43C)[C@H]12,cell growth or viability,MTT,48 h,25.8 µM
Cc1cc(=O)oc2cc(OCC(=O)NCC(=O)NCC(=O)NN)ccc12,cell growth or viability,MTT,,63.7 µM
Fc1ccc(-c2noc(-c3cccs3)c2C(F)(F)F)cc1,cell growth or viability,MTT,48 h,15.4 µM
O=C(O)c1ccc([P+]([Au-][Cl])(c2ccccc2)c2ccccc2)cc1,cell viability,XTT,72 h,78 µM
C=CCc1ccc(OCc2nnc(SCC(=O)Nc3ccccc3C(=O)OC)o2)c(OC)c1,cell growth or viability,MTT,72 h,7.07 µM
CCN(CC)CCO/N=C1/C=C2CCC3C(CC[C@]4(C)/C(=C/c5ccccn5)CCC34)[C@@]2(C)CC1 (some centres unmarked),cell growth or viability,MTT,72 h,> 100 µM
C[C@H]1[C@H](C)CC[C@]2(C)CC[C@]3(C)C(=CC(=O)[C@@H]4[C@@]5(C)CC[C@@H](O)[C@](C)(C(=O)NCCNC(=O)C6CC6)[C@@H]5CC[C@]43C)[C@H]12,cell growth or viability,MTT,48 h,23.6 µM
Cc1nc([N+](=O)[O-])c(N2CCNCC2)n1Cc1ccccc1,cell growth or viability,MTT,72 h,> 500 µM
NC1CCCCC1N.O=C(CCCc1ccccc1)[O][Pt]1([O]C(=O)CCCc2ccccc2)[O]C(=O)C(=O)[O]1,cell growth or viability,,,6.35 µM
C=CCc1ccc(OCc2nnc(SCC(=O)Nc3ccc(Cl)cc3Cl)o2)c(OC)c1,cell growth or viability,MTT,72 h,30 µM
C[C@]12CC/C(=N/O)C=C1CCC1C2CC[C@]2(C)/C(=C/c3ccccn3)CCC12 (some centres unmarked),cell growth or viability,MTT,72 h,57.7 µM
CC(C)=CCC1=C([O-])C(=O)c2ccccc2C1=O.O=[N+]([O-])[O-].[Cu+2].c1ccc(-c2cccc(-c3ccccn3)n2)nc1,cell viability,MTT,24 h,> 50 µM
C=CC(OC(C)=O)c1cc(OC)c(OC(C)=O)c(OC)c1 (centres unmarked),,MTT,24 h,> 50 µM
CCCCCCC(=O)NCCNC(=O)[C@@]1(C)[C@H](O)CC[C@@]2(C)[C@H]1CC[C@]1(C)[C@@H]2C(=O)C=C2[C@@H]3[C@@H](C)[C@H](C)CC[C@]3(C)CC[C@]21C,cell growth or viability,MTT,48 h,12.5 µM
Cc1ccc2c(c1)C(=O)[C@](C)([N+](=O)[O-])[C@@H](CC(=O)NC13CC4CC(CC(C4)C1)C3)O2,cell growth or viability,SRB,96 h,6.39 µM
CCOC(=O)CS/C(Nc1ccccc1)=C(\C#N)C(=O)Nc1nnc(NC(=O)c2ccccc2)s1,cell growth or viability,MTT,48 h,71.9 µM
CCCC(CCC)C(=O)[O][Pt]([Cl])([Cl])[O]C(=O)C(CCC)CCC.N.N,cell growth or viability,,,2.13 µM
[CH3][Pd-2]([Cl])([N+](=Cc1ccc[nH]1)Cc1ccccc1)[N+](=Cc1ccc[nH]1)Cc1ccccc1,cell growth or viability,MTT,24 h,25.1 µg/mL
CSc1ccc(-c2noc(-c3cccs3)c2C(F)(F)F)cc1,cell growth or viability,MTT,48 h,26.1 µM
CC(=O)O[C@@H]1CC[C@@]2(C)[C@@H](CC[C@]3(C)[C@@H]2C(=O)C=C2[C@@H]4[C@@H](C)[C@H](C)CC[C@]4(C)CC[C@]23C)[C@@]1(C)C(=O)NCCNC(=O)C1CC1,cell growth or viability,MTT,48 h,6.79 µM
C=CCc1ccc(OCc2nnc(SCC(=O)Nc3ccc(Br)cc3)o2)c(OC)c1,cell growth or viability,MTT,72 h,16.7 µM
O=C([O][Ti+2][O]C(=O)c1ccc([P+]([Au-][Cl])(c2ccccc2)c2ccccc2)cc1)c1ccc([P+]([Au-][Cl])(c2ccccc2)c2ccccc2)cc1.c1cc[cH-]c1.c1cc[cH-]c1,cell viability,XTT,24 h,51 µM
O=C1NN=C(c2ccccc2)/C1=N/Nc1ccccc1,cell growth or viability,MTT,,1.22 µM
COC(=O)[C@H]1CC[C@H](NC(=O)C[C@H]2Oc3ccccc3C(=O)[C@]2(C)[N+](=O)[O-])CC1,cell growth or viability,SRB,96 h,> 50 µM
CCN1CCC2(CC1)C/C(=N\NC(=O)Nc1ccc(C)cc1)c1ccccc1O2,cell growth or viability,MTT,48 h,5.47 µM
CCCCn1cc(C(=O)O)c(=O)c2cc(F)c(Nc3ccc(OC)cc3)c([N+](=O)[O-])c21,cell growth or viability,SRB,72 h,> 200 µg/mL
CCN1CCC2(CC1)C/C(=N\NC(=O)Nc1ccc(Cl)cc1)c1ccccc1O2,cell growth or viability,MTT,48 h,27.2 µM
CCCC(CCC)C(=O)NCCNC(=O)[C@@]1(C)[C@H](O)CC[C@@]2(C)[C@H]1CC[C@]1(C)[C@@H]2C(=O)C=C2[C@@H]3[C@@H](C)[C@H](C)CC[C@]3(C)CC[C@]21C,cell growth or viability,MTT,48 h,20.3 µM

# Repeated from above:
SMILES,read-out,method,time,IC50
CCc1c(C)c2ccc(OC(C)C)c(C)c2oc1=O,cell growth or viability,MTT,,> 50 µM
N=C(N)Nc1nc2ccccc2[nH]1,cell growth or viability,MTT,24 h,121 µM
C=CCc1ccc(OC(C)=O)c(OC)c1,,MTT,24 h,> 50 µM
